Measured values from different studies.
Every numbered part comes from another study and shows a few of its results, in no order.

Sample 1
Target: Interferon regulatory factor 7, full length, phosphomimetic (IRF7, Homo sapiens, UniProt Q92985, residues 1-503, S101K/S471D/S472D/S475D/S476D/S477D/S483D/S484D/S487D)
Chain of UniProt Q92985 (whole entry, unmodified, looked up): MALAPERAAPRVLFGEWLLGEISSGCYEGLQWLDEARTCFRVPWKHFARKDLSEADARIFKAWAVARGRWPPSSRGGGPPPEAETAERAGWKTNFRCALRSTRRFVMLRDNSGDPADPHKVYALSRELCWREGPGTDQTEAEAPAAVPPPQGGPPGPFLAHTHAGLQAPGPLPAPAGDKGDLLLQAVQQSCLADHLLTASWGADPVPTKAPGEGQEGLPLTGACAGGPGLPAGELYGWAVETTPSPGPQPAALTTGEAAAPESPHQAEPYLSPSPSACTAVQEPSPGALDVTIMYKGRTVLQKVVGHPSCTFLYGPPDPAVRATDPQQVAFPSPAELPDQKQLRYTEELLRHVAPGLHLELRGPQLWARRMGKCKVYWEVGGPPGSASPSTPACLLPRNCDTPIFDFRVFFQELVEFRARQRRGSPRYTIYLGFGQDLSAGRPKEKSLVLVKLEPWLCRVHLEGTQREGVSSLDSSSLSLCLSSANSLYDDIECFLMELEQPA
Technique: protein-binding microarray
Molecule type: double-stranded DNA, one strand shown
Sample: in vitro
Concentration: 250 nM
Notes: 60-bp whole probe
Added: salmon DNA 0.4 mg/ml
Relative to: random background probes
Direction: higher = stronger binding
Shared flanks, not repeated: GCCTAGCAC … GTCTTGATTCGCTTGACGCTGCTG
Oligonucleotide | log fluorescence [z-score]
TTACGTTTCCTTTCCCTTTAGTGCTAG | 3.36
GACGATCTCAGTCTCAAGACGTGCTAG | -0.0293
TTAGGACTGTACTATCGGTTAGTGCTA | 0.172
TTAGCTCTCCTACTGCTTTAGTGCTAG | -0.00727
TTAGGTATCGACTTTCCGTTAGTGCTA | 1.77
GACGGTCTCGGACTGTGGACGTGCTAG | -0.168
GACGATGTCGGGTATCGAGACGTGCTA | -0.505
TTAGAACTGGGGTTTCGAGTAGTGCTA | 2.34
TTAGAACTGGGGTATCGATCAGTGCTA | -0.215
TATGTTCACTATTTAAGGCCGTGCTAG | 0.912
TTTTTTTTCACTATTGCTTCGTGCTAG | 1.45
GACGGGTTCGGGTTTCGGGACGTGCTA | 4.08
GACGGTCTCCTTATCCAGACGTGCTAG | 0.181
GACGGTTTTCTTTCCCTGACGTGCTAG | 2.07
ACTAATTTTCAATTCCTGAAGTGCTAG | 0.434
GACGGACTGGGTCGCGGGACGTGCTAG | -0.235
GACGAACTGGGTATCGAGACGTGCTAG | -0.183
TTAGGTTTCGGTTTCGCTTAGTGCTAG | 14.7
TGGGCACACTTTGGGTCCTGGTGCTAG | 1.23
CACGGTTTCCTTATCCTGACGTGCTAG | 3.04
GGCGGTTTCCTACTGCTGACGTGCTAG | 0.745
GACGGAGTGGGTATCGGGACGTGCTAG | -0.428
GACAGTTTCGACTTTCGGGACGTGCTA | 10.2
TTAGGCCTGCTTCTCCTTTAGTGCTAG | 1.04
TTAGGTCTCAGTTTCGGTTAGTGCTAG | 8.53

Sample 2
Target: Prothrombin, mature alpha-thrombin (F2, Homo sapiens, UniProt P00734)
Technique: aptamer microarray, sandwich
Molecule type: DNA with 2'F-ANA
Sample: in vitro
Concentration: 200 nM
Notes: whole 15-mer aptamer, many near background
Added: Cy3 exosite-II aptamer, 400 nM
Direction: higher = stronger binding
Oligonucleotide: GGTTGGTGTGGTTGG
Modification | mean fluorescence intensity
2'F-ANA at 3 4 5 6 7 11 12 13 | 110 a.u.
2'F-ANA at 1 2 3 7 10 12 13 14 15 | 138 a.u.
2'F-ANA at 1 2 3 4 5 6 8 9 11 12 13 14 15 | 53.6 a.u.
2'F-ANA at 1 3 4 5 8 10 13 15 | 59.6 a.u.
2'F-ANA at 1 3 5 6 8 10 11 | 55.7 a.u.
2'F-ANA at 2 3 4 8 12 13 14 15 | 301 a.u.
2'F-ANA at 2 7 10 11 14 | 92.9 a.u.
2'F-ANA at 2 3 5 7 11 12 13 15 | 114 a.u.
2'F-ANA at 1 3 4 5 6 8 9 12 13 15 | 75.4 a.u.
2'F-ANA at 5 8 9 10 14 15 | 45.3 a.u.
2'F-ANA at 1 2 3 5 6 7 8 9 13 14 | 48.9 a.u.
2'F-ANA at 3 4 5 6 7 8 11 12 14 15 | 56.3 a.u.
2'F-ANA at 4 5 7 8 12 13 | 109 a.u.
2'F-ANA at 2 4 5 6 8 12 13 15 | 94.5 a.u.
2'F-ANA at 1 2 3 4 5 7 8 9 13 15 | 53.6 a.u.
2'F-ANA at 2 5 6 7 9 11 12 13 | 84.8 a.u.
2'F-ANA at 1 2 5 6 7 8 9 10 11 12 13 14 15 | 51.9 a.u.
2'F-ANA at 1 3 5 6 11 12 13 14 | 45.9 a.u.
2'F-ANA at 1 5 6 9 10 11 12 13 14 | 47.3 a.u.

Sample 3
Target: RNA binding protein fox-1 homolog 2, RRM domain, GST-SBP tag (RBFOX2, Homo sapiens, UniProt O43251-10, residues 100-194)
Technique: RNA Bind-n-Seq
Molecule type: RNA
Sample: in vitro
Concentration: 365 nM
Notes: natural RNA segment, single round, ends assumed
Relative to: no-protein control
Direction: higher = stronger binding
Construct (chain): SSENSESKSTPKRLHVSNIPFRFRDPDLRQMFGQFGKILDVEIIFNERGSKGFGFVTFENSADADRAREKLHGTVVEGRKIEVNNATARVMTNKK
Oligonucleotide | RBNS enrichment (R)
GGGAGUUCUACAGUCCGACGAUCGGAGGAGCCGGAUUGGGUUAUUUCUUAGGGAUUCUCUUUGUGUGCCUUGCUGGCUUCCAGACCUGCCGUGGACCUUGGCUUCCUCUGAAGACUUGCAGGCAAUAAUCUCCUGGAAUUCUCGGGUGCCAA | 0.582
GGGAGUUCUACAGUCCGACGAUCCAACGUAACUACUGCUCCCCUCUCCUCCGACGCUCCCCCGCGGGGCUCCGGAGGGGACCCAGCUCCUCUGAGCCAUACCAACCAUCGUCCAGCCCUCCUGCACGGAUGCUUGGAAUUCUCGGGUGCCAA | 0.197
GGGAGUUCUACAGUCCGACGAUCCUCUUAAUAGUUGUGUAUAAUGAAAACUGUAAACUUUUUUAAAUAAAAUGUGUAUAUACCUUGGCAAUGGCUGAACUUGAUCUAUCACAGCUGCCCCACGCACAUCCAACUGGAAUUCUCGGGUGCCAA | 0.885
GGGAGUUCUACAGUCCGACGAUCGGGGCCAGCAGAAAGAAGACAGGCUGUCCAGGCCGCACCCGCUGCAGUGGGGCACCAGCCGGCCACACCCAUUGCCUCGGCUGCCUCUUCAUAGACUCUUGCUGCCCAGCUGGAAUUCUCGGGUGCCAA | 0.438
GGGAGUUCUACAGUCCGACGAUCUGCAGUUCAUUUCCCACUAACCAUGCAGGUGCACAUCACGGAAAUACCGGUUUAACUACUAGUGUGUUACUGCCUCAUUUAUCUACAUUAACUAGAACAGAAUGCUUACAUGGAAUUCUCGGGUGCCAA | 1.02
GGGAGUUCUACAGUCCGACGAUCUGCCUAUAGCCCUUUACCCUGAGCACCACCCCAACAGACUGGGGACCAGCCCCCUCGCCUGCCUGUGUCUCUCCCCAAACCCCUUUAGAUGGGGAGGGAAGAGGAGGAGAUGGAAUUCUCGGGUGCCAA | 0.488
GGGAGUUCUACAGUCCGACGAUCUCUGAUCCUGAGGCUAAGAAAGGGGAAGAGACCCUCAGGAGGCAGCUUCCACUCCAGGGCUCUUGAUCUCUGCUGGAUUGGGGGUGGCCACCUCAGAAACUUCCACCCUCUGGAAUUCUCGGGUGCCAA | 0.599
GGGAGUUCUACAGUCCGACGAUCAGGAAUUUGUAAUUUGAGACCUAGUAUUUUUACACAAUAAACCUGCUAAAACAGGCUUUAAAAGACAGCAAAAUAAGCCAUAUGUAGUGGUGUUAAGACUGUAAUCCCAGUGGAAUUCUCGGGUGCCAA | 0.392
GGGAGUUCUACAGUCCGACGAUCUCCAAUGAAAUGUUAUAGGUGUGUGAAAGCAGAUUAAAGAAAGAGGUUCCCAUAUCAUUCUUUCUAAACAAAGCCUGUGAUUUAUGCAGAGUGUCUCUAGCUCUGAAGUUUGGAAUUCUCGGGUGCCAA | 0.467

Sample 4
Target: Ras GTPase-activating protein-binding protein 1, RRM domain (G3BP1, Homo sapiens, UniProt Q13283)
Chain of UniProt Q13283 (whole entry, looked up): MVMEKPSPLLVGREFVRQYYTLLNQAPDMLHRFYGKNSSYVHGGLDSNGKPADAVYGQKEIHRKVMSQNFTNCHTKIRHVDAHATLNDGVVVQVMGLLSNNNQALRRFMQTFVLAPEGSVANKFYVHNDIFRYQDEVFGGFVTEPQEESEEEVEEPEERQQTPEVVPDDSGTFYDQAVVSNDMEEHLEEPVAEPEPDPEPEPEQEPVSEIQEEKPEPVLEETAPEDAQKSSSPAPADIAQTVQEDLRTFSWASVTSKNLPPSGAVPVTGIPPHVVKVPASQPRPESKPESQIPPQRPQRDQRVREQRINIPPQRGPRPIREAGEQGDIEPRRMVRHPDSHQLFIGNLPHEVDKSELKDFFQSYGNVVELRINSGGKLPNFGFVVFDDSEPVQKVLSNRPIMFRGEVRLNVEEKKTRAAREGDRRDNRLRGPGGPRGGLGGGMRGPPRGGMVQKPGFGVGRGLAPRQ
Technique: RNA Bind-n-Seq
Molecule type: RNA
Sample: in vitro
Concentration: 1 µM
Notes: whole 134-nt RNA, ends assumed
Added: 150 mM KCl
Relative to: input library
Direction: higher = stronger binding
Oligonucleotide | log2 enrichment
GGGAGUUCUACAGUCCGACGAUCUACUCUUUGAUUUAUCAAAUGUGUUCAGUUGGAGAAUCGUCCUCAGGAAAGGCUUCAAGGAGCCUUGCACAGCAUAUUCCUGGCCCUGGUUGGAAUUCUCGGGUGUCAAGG | -0.36
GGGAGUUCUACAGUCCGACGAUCUGGUUAGUCAACUACUUUGGUUCCUUAUCAGUAGAAGACUCCCUAGAAUGUCUCAGAGCCAUGCUGUCUGCCAACAUCCGUCAGAAUCUGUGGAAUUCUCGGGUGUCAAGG | -0.217
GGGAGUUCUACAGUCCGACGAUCCAAGUCCUGUGCUACACAUCGUAUGUACCGAAUCGGUGGUUUUUGGUUUUUUUGGAAAGUAUUAUGUUACGCCGUUCGGAUCUGCACUUCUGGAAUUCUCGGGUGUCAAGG | -0.217
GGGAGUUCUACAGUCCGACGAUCCCUCAAGUCCUGUGCUACACAUCGUAUGUACCGAAUCGGUGGAGGUUUUUGGAAAGUAUUAUGUUACGCCGUUCGGAUCUGCACUUCCAGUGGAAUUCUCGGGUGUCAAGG | -0.19
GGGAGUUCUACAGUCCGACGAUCUGGGAGGUGGAUUUUGUUUAUUUUUUUAGCUCAUUUCCAGGGGUGGGAAUUUUUUUUUAAUAUGUGUCAUGAAUAAAGUUGUUUGUGAAAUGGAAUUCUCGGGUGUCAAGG | 1.5
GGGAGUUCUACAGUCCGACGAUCUCCUGUGCUACACAUCGUAUGUACCGAAUCGGGAAAAAAAGGGAAAAAGGGAAAAAGGGAAAGUAUUAUGUUACGCCGUUCGGAUCUGCAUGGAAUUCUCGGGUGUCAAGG | 0.0804
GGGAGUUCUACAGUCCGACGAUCUGGCCCUGGUGGCAUGCGGGGAGGAAGAGGUGGCCUCAUGGAUCGUGGUGGUCCCGGUGGAAUGUUGAGAGGUGGCCGUGGUGGAGACAGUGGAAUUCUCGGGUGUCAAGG | 2.02
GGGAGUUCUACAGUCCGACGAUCACCAUGCAGGUGGGCAUCUUUGGGAAGUGGGGCAAGGGGGGGAUAGGGAGGGGGGUAACACUUUGGGAACAGGUGGUCCCCGGUCGUUUCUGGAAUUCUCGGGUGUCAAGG | 0.511
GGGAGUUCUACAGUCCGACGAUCACCAUGCAGGUGGGCAUCUUUGGGAAGUGGGGCAAGGGGGGGAUAGGGAGGGGGGUAACACUUUGGGAACAGGUGGUCCCAGGUCGUUCCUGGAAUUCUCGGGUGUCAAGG | 1.12
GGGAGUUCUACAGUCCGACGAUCCCUCAAGUCCUGUGCUACACAUCGUAUGUACCGAAUCGGCGGGGCGGGCGGGGAAAGUAUUAUGUUACGCCGUUCGGAUCUGCACUUCCAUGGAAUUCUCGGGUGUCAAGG | 0.127

Excerpt of the above (sample 1):
Oligonucleotide | log fluorescence [z-score]
GACGATCTCAGTCTCAAGACGTGCTAG | -0.0293
TTAGGACTGTACTATCGGTTAGTGCTA | 0.172
TTAGCTCTCCTACTGCTTTAGTGCTAG | -0.00727
TTAGGTATCGACTTTCCGTTAGTGCTA | 1.77
GACGGTCTCGGACTGTGGACGTGCTAG | -0.168
GACGATGTCGGGTATCGAGACGTGCTA | -0.505
TTAGAACTGGGGTTTCGAGTAGTGCTA | 2.34
